Results collected from several papers.
Protocols differ between the studies behind these lines. Numbers after ± are the reported error.
T1: dsDNA, self-complementary, T9 linker hairpin; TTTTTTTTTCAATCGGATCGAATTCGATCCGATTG

CN1CCN(CCCNc2cc3c4c(c(NCCCN5CCN(C)CC5)cc5c4c2C(=O)N(CCCN2CCN(C)CC2)C5=O)C(=O)N(CCCN2CCN(C)CC2)C3=O)CC1  Kd (T1, dsDNA, self-complementary, T9 linker hairpin; SPR; KCl 100 mM, two-site fit): 44.7 µM
CCCCCCCCCCCC(=O)Nc1ccc(OC)nc1C  specific activity (Carboxylesterase 3 (CES3, Homo sapiens, UniProt Q6UWW8); substrate; 50 µM, pH 8, 37 °C, enzyme purity 3%): 9.8 pmol/min/µg
[123I]c1ccc2nc(-c3ccc(-n4ccnn4)nc3)cn2c1  SUVR (Amyloid-beta precursor protein, amyloid-beta (APP, Homo sapiens, UniProt P05067); SPECT; healthy controls, cortical average; 120 to 210 min; baseline: cerebellum): 0.8 ± 0.04
CC[C@H](C)[C@H](NC(=O)[C@H](CCCCN)NC(=O)[C@H](CCCCN)NC(=O)[C@@H](NC(=O)[C@H](CCC(=O)O)NC(=O)[C@H](CCC(=O)O)NC(=O)[C@H](CCC(=O)O)NC(=O)[C@H](C)NC(=O)[C@H](CC(C)C)NC(=O)[C@H](CC(=O)O)NC(=O)[C@H](CC(C)C)NC(=O)CNC(=O)[C@H](CCCNC(=N)N)NC(=O)[C@H](CC(C)C)NC(=O)[C@H](CO)NC(=O)CNC(=O)CNC(=O)CNC(=O)CCCC[C@@H]1SC[C@@H]2NC(=O)N[C@@H]21)C(C)C)C(=O)N[C@@H](CC(C)C)C(=O)N[C@@H](CC(=O)O)C(=O)N[C@@H](CCC(=O)O)C(=O)N[C@H](C(=O)N[C@H](C(=O)N[C@@H](CCCCN)C(=O)N[C@@H](CC(=O)O)C(=O)O)C(C)C)[C@@H](C)CC  Kd ratio (Fab B11 antibody (human); binding, biolayer interferometry; baseline: alanine mutant over wild type): 7.3
O=C(c1ccccc1)c1cc(O)c(-c2cc(Cl)cc(Cl)c2)c(O)c1  Emax (CNR2 (Homo sapiens, UniProt P34972); cAMP level, agonist; HEK-CNG cells; baseline: baseline): 54.8 ± 3.23%
Cc1ncsc1-c1ccc(CNC(=O)[C@@H]2C[C@@H](O)CN2C(=O)[C@@H](NC(=O)COCCOCCOCCNC(=O)C[C@@H]2N=C(c3ccc(Cl)cc3)c3c(sc(C)c3C)-n3c(C)nnc32)C(C)(C)C)cc1  cooperativity (VHL/BRD3, BD2; with Elongin B/C (Homo sapiens, UniProt P40337+Q15059); ITC; 25 °C, ternary complex with VCB, BRD3 BD2; baseline: binary Kd over ternary Kd): 11
[3H]C([3H])([3H])c1cnccc1CN1C[C@@H](c2cc(F)c(F)c(F)c2)CC1=O  total binding (SV2A (Homo sapiens, UniProt Q7L0J3); radioligand binding, autoradiography; human, post-mortem insula; 2 nM): 86 fmol/mg
O=C1CSc2ccccc2N1CC(=O)N(c1ccc(F)cc1)c1ccc(F)cc1  maximum fold increase (Proteasome subunit alpha type-2/Proteasome subunit alpha type-6, 20S proteasome (Homo sapiens, UniProt P25787+P60900); proteolysis, activator, fluorogenic peptide; purified 20S proteasome; up to 30 µM, together with: Suc-LLVY-AMC, Z-LLE-AMC, Boc-LRR-AMC; baseline: vehicle): 4.3 ± 1.3
COc1cc(F)c(C(C)C)cc1C1=C(CN2C(=O)O[C@H](c3cc(C(F)(F)F)cc(C(F)(F)F)c3)[C@@H]2C)CC(C)(C)CC1  maximum inhibition (Cholesteryl ester transfer protein (Homo sapiens, UniProt P11597); enzyme activity; healthy male subjects, plasma; oral, 100 mg single dose; baseline: baseline): 78.3%
CC(=O)[C@]12NC(C)(C)C[C@@]1(C)C(=O)C1=C2c2c(c3c4n2C(C)(C)CC2=C4[C@@]4(CC(C)(C)N[C@@](C)(C4)C2=O)CC3(C)C)C(=O)C(C)(C)N1 (racemic)  agonist activity (OPRK1 (Homo sapiens, UniProt P41145); agonist, cAMP; CHO; concentration not given): inactive
COc1ccc(-c2cc(C(F)(F)F)nc(S(=O)(=O)CCCC(=O)Nc3ccc(F)cc3F)n2)cc1OC  basal activity increase (Glucagon-like peptide 1 receptor (Rattus norvegicus, UniProt P32301); refers to: cAMP; INS-1 832/13; 25 µM; baseline: basal): 20%
Cc1cc(N2CC[C@](C#N)(C3(C)CC3)C2=O)cc(C(=O)NCc2cc(F)cc(-c3cnn(C)c3)c2)n1  melting temperature (Proline--tRNA ligase (Plasmodium falciparum, UniProt Q8I5R7); thermal shift; together with: L-proline 2 mM): 69 °C
CC(C)C[C@H](NC(=O)[C@H](CCCNC(=N)N)NC(=O)[C@@H](N)CS)C(=O)N[C@@H](CC(N)=O)C(=O)O  remaining activity (PPO3 (Agaricus bisporus, UniProt C7FF04); enzyme activity, inhibitor; 200 µM): 49.3%
O=C(O)Cc1ccc(O)cc1  -TΔS (p-hydroxyphenylacetate 3-hydroxylase, reductase component (C1-hpah, Acinetobacter baumannii, UniProt Q6Q271); ITC; pH 7): 13.5 ± 1.11 kcal/mol
C[C@H]1CN(C(=O)c2nc(Nc3cc(C4CC4)[nH]n3)c3cc(Cl)ccc3n2)CCN1  ligand efficiency (PAK4 (Homo sapiens, UniProt O96013); from Ki): 0.39
O=C(c1cc2c(s1)CCCCC2)N1CCC(n2c(=O)[nH]c3ccccc32)CC1  single-channel conductance (Trpc6 (Mus musculus, UniProt Q61143); ion current, agonist, outside-out patch clamp; HEK293; 1 µM, holding -60 mV): ~35 pS
COc1cc(CNC(=O)C[C@H](C)CCC=C(C)C)ccc1OCc1cn(-c2ccc(Br)cc2)nn1  growth percent (HOP-62; SRB; 10 µM, 48 h): 65.1%
CNc1ccccc1C(=O)O[C@H]1C[C@H](n2cnc3c(N)ncnc32)O[C@@H]1COP(=O)(O)OP(=O)(O)O  dissociation rate constant (Unconventional myosin-Va (Gallus gallus, UniProt Q02440, D297C/G292C/I296C/S293C/V295G); stopped-flow FRET, linear fit intercept; 25 °C, together with: MgCl2 2 mM): 8.08 ± 0.6 s⁻¹
Cc1ncsc1-c1ccc([C@@H]2CCCCCCNC(=O)C[C@@H]3N=C(c4ccc(cc4)OCCCCCC(=O)N[C@@H](C(C)(C)C)C(=O)N4C[C@H](O)C[C@H]4C(=O)N2)c2c(sc(C)c2C)-n2c(C)nnc23)cc1  degradation (Bromodomain-containing protein 4, long isoform (BRD4, Homo sapiens, UniProt O60885); degrader, immunoblotting; PC-3; 100 nM, 2 h, long isoform): 82%
CC(/C=C/C(=O)NO)=C\[C@@H](C)C(=O)c1ccc(N(C)C)cc1  binding enthalpy (ΔH) (HDAC8 (Homo sapiens, UniProt Q9BY41); isothermal titration calorimetry; concentration not given, pH 7.5, 25 °C): -8.93 ± 0.5 kcal/mol
[11CH3]Nc1ccc(-c2nc3ccc(O)cc3o2)cn1  distribution volume ratio (APP (Homo sapiens, UniProt P05067); binding, PET, reference Logan; control subjects, parietal cortex; baseline: cerebellum): 0.94 ± 0.08
COc1cc(CNC(=O)C[C@H](C)CCC=C(C)C)ccc1OCc1cn(-c2ccccc2)nn1  growth percent (HCC 2998; SRB; 10 µM, 48 h): 93.3%
CC(C)CC(NC(=O)C(NC(=O)NC(C(=O)O)C(C)C)C1CCNC(=N)N1)C(=O)NCCCNC(C(=O)O)C(OC1OC(CN)C(O)C1O)C1OC(n2ccc(=O)[nH]c2=O)C(O)C1O (centres unmarked)  ΔS (mraY (Aquifex aeolicus, UniProt O66465, T75A); ITC; T75A mutant): -3.3 ± 1.7 cal/mol/K
C=Cc1c(C)c2cc3nc(c4c5[nH]c(cc6nc(cc1[nH]2)C(C)=C6CC)c(C)c5C(=O)C4)[C@@H](CCC(=O)NCC(=O)N1CCC[C@H]1C(=O)N[C@@H](CC(C)C)C(=O)NCC(=O)N[C@@H](Cc1ccccc1)C(=O)N[C@@H](CCCNC(=N)N)C(=O)N[C@H](C(=O)NCC(=O)N[C@@H](CCCCNC(=O)CCCN(C)c1ccc(/N=N/c2ccc4nc5ccc(N(CC)CC)cc5[n+](-c5ccccc5)c4c2)cc1)C(N)=O)C(C)C)[C@@H]3C  probe activation (Stromelysin-2 (Homo sapiens, UniProt P09238); substrate; concentration not given, 24 h, 37 °C; baseline: proteinase K): ~85%
O=C(CCCC[C@@H]1SC[C@@H]2NC(=O)N[C@@H]21)NCCCNC(=O)Cn1nc(-c2ccccc2)c2c(Cl)c(-c3ccccc3)nnc21  covalent conjugation (60 kDa heat shock protein, mitochondrial (Homo sapiens, UniProt P10809); peptide conjugation): ~2%
CSCC[C@H](NC(=O)[C@H](CC(C)C)NC(=O)[C@H](Cc1c[nH]cn1)NC(=O)CNC(=O)[C@@H](NC(=O)[C@H](C)NC(=O)[C@H](Cc1c[nH]c2ccccc12)NC(=O)[C@H](CCC(N)=O)NC(=O)CCOCCOCCOCCOCCNC(=O)CN1CCN(CC(=O)O)CCN(CC(=O)O)CCN(CC(=O)O)CC1)C(C)C)C(N)=O [indium-111 labelled]  intact peptide (radio-HPLC; male Swiss nu/nu mice, blood; intravenous, 1 nmol, 5 min): 23.3 ± 1.4%
CC(C)C[C@H](NC(=O)[C@H](CO)NC(=O)[C@H](CC(C)C)NC(=O)[C@@H]1CCCN1C(=O)CNC(=O)[C@H](Cc1ccccc1)NC(=O)OCC1c2ccccc2-c2ccccc21)C(=O)N[C@@H](CCCNC(=N)N)C(=O)N[C@@H](CO)C(=O)N[C@@H](CCCCN)C(=O)O  hydrolysis product (MMP9 (Homo sapiens, UniProt P14780); substrate, HPLC; 500 µM, 72 h, pH 7.5, 37 °C): 81%
OCC1CCCN(CCNc2cc(-c3ccccc3)nc3ccnn23)C1 (centres unmarked)  signal attenuation (DNA dC->dU-editing enzyme APOBEC-3B, C-terminal domain (Homo sapiens, UniProt Q9UH17); binding, 1H CPMG NMR; 20 µM protein): 55 ± 7.9%
O=c1ccn([C@@H]2C[C@@H](O)[C@H](COP(=O)(O)O)O2)c(=O)[nH]1  relative Vmax (UMP-CMP kinase (Homo sapiens, UniProt P30085); enzyme activity, substrate, coupled spectrophotometric; baseline: D-CMP): 0.28 ± 0.02%

For quick reference, copied from above:
Cc1cc(N2CC[C@](C#N)(C3(C)CC3)C2=O)cc(C(=O)NCc2cc(F)cc(-c3cnn(C)c3)c2)n1  melting temperature (Proline--tRNA ligase (Plasmodium falciparum, UniProt Q8I5R7); thermal shift; together with: L-proline 2 mM): 69 °C
[3H]C([3H])([3H])c1cnccc1CN1C[C@@H](c2cc(F)c(F)c(F)c2)CC1=O  total binding (SV2A (Homo sapiens, UniProt Q7L0J3); radioligand binding, autoradiography; human, post-mortem insula; 2 nM): 86 fmol/mg
COc1cc(F)c(C(C)C)cc1C1=C(CN2C(=O)O[C@H](c3cc(C(F)(F)F)cc(C(F)(F)F)c3)[C@@H]2C)CC(C)(C)CC1  maximum inhibition (Cholesteryl ester transfer protein (Homo sapiens, UniProt P11597); enzyme activity; healthy male subjects, plasma; oral, 100 mg single dose; baseline: baseline): 78.3%
CNc1ccccc1C(=O)O[C@H]1C[C@H](n2cnc3c(N)ncnc32)O[C@@H]1COP(=O)(O)OP(=O)(O)O  dissociation rate constant (Unconventional myosin-Va (Gallus gallus, UniProt Q02440, D297C/G292C/I296C/S293C/V295G); stopped-flow FRET, linear fit intercept; 25 °C, together with: MgCl2 2 mM): 8.08 ± 0.6 s⁻¹
